Results of several laboratories.
Numbered parts are unrelated; each lists some results of a single study.

Block 1 — technique: aptamer microarray, sandwich; form: DNA with 2'F-ANA; medium: in vitro; tested at: 200 nM; added: Cy3 exosite-II aptamer, 400 nM; direction: higher = stronger binding; sequence: GGTTGGTGTGGTTGG
Target: Prothrombin, mature alpha-thrombin (F2, Homo sapiens, UniProt P00734)
Notes: whole 15-mer aptamer, many near background
| Modification | mean fluorescence intensity [a.u.] |
| --- | --- |
| 2'F-ANA at 2 3 8 11 14 15 | 380 |
| 2'F-ANA at 2 3 4 5 6 9 10 11 12 14 15 | 52.8 |
| 2'F-ANA at 1 3 7 11 13 14 | 91.8 |
| 2'F-ANA at 1 2 3 4 7 8 9 10 12 13 14 | 53.3 |
| 2'F-ANA at 3 4 5 6 7 8 10 11 12 13 14 | 44.7 |
| 2'F-ANA at 4 5 6 12 15 | 138 |
| 2'F-ANA at 3 5 7 8 | 174 |
| 2'F-ANA at 2 4 5 10 11 12 15 | 83.6 |
| 2'F-ANA at 2 5 6 8 14 | 58.3 |
| 2'F-ANA at 1 2 3 4 5 7 9 10 12 14 15 | 46.5 |
| 2'F-ANA at 1 2 4 5 8 10 11 13 | 55 |
| 2'F-ANA at 1 2 5 6 8 11 12 13 15 | 72.7 |
| 2'F-ANA at 3 | 1300 |
| 2'F-ANA at 2 4 14 | 114 |
| 2'F-ANA at 3 4 5 6 8 10 11 13 14 15 | 52.3 |
| 2'F-ANA at 4 7 10 11 12 15 | 109 |
| 2'F-ANA at 3 4 9 12 13 | 689 |
| 2'F-ANA at 2 3 5 8 9 10 13 14 | 51.1 |
| 2'F-ANA at 2 3 5 8 12 15 | 237 |
| 2'F-ANA at 2 7 | 498 |
| 2'F-ANA at 8 9 11 14 15 | 185 |
| 2'F-ANA at 1 2 3 5 7 8 12 14 | 47.6 |
| 2'F-ANA at 3 5 6 7 10 12 | 61.4 |

Block 2 — technique: RNA Bind-n-Seq; form: RNA; medium: in vitro; tested at: not given; notes: RNA with constant flanks, ends assumed; relative to: input RNA pool; direction: higher = stronger binding
Target: RING finger protein unkempt homolog, zinc fingers 1-6, GST-SBP tag (UNK, Homo sapiens, UniProt Q9C0B0, residues 30-357)
Residues (chain): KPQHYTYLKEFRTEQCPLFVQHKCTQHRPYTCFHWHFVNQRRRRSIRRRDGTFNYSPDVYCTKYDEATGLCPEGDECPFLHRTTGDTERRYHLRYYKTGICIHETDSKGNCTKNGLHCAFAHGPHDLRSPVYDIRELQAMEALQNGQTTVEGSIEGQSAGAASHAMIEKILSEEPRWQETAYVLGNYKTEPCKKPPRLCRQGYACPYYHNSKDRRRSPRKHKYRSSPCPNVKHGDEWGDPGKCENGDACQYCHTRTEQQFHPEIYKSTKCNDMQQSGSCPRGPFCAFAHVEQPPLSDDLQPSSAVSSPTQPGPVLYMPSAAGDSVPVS
| Sequence | bound/input enrichment [ratio] |
| --- | --- |
| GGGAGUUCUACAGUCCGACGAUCUCUUCUCUUUUUGGAAUUUUAUCUCCUAGUAGUGAUCUCACACUUUCAAGUGUUCUCUGGGACCGAGAGAGAUCAAGCUUUUAUAGCCUGACGAGUUCAAACAUCAGUAAAUGGGAAUUACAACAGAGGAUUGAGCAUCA | 0.397 |
| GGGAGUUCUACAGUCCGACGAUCUCCAAAAAGAUCCAGCAGAUCCAUGUGGUUUCCCAGUUUAAGAUUCUGGUCAGCUUGUCCGAAAACAACAUUUAUGUCCAUGACUUACUGACAUUUCAACAAAUCACUACAGUCUCAAAGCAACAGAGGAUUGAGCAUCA | 0.0718 |
| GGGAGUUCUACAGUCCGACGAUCCGGUUUGCAGUCCCUCCAGCACUUGGGAGUAAUUUGACCGACAAUGUCAUGAUCACAGCCGAUAUUAUUCCUUCAGGUUGGAAUUCAGCUGAUGGUAAAAGUGAUAAAACUAAAAGUGCGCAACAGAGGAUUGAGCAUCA | 0.165 |
| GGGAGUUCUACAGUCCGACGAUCUCUUUUGAGGUGAUGGUGCUGGCCGAGCUGUUUCUGGAGAUGCUCCAGAGGGAUUUUGGCUACCGAGUUUAUAAGAUGCUACUGAGCCUUCCUGAAAAGGUCGUGUCCCCACCUGAACCUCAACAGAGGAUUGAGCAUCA | 0.302 |
| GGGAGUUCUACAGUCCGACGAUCCUCCUGGCCAGACGCUGCCGCUGCCGCUGCACCACGGCGUUUUUUUACAACAUUCAACUUCCGUAUUUUUACUAUUAUAAUAUAAUAUGGAACCUUCCCUCCAAAUUCUUCAAUAAAAGUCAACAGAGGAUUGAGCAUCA | 1.05 |
| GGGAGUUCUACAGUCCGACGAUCAGCCUUCGAGGAAGAGGCCCUCCUCCUUCUUGGGCUUCUGAACCUGAACGCCCAUCCAUCCUCCGUGCAUCCGAACUGAAGGAGCUCGAUAAAUUUGAUAACCUAGAUGCUGAAGCAGAUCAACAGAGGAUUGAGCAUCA | 0.201 |
| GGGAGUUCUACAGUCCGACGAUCCGCAGAAGAUUAAAGGGUGAAAAUGGGAUGGAGGAUUGUGUCAUGGCCCUAGAAACCUUGUUCCGUGUUCUGCUUUCUCUUUGCAGACUUAUGGCUCCCUACACACCUUUUCUCACUGAACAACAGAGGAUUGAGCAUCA | 0.181 |
| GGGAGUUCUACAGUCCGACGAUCGAGAAUGGCUCUCUUCAACUUGGCGCUGAAGCUGUGGAAGGUGGUAGACAUCAGAAGGGGUCCGGCCGUGCAGUCUUUGAGCUGGAAAAUGGAGAGGCAGAGAUCUACGCUGACCUGUCACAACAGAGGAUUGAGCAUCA | 0.113 |

Block 3 — technique: RNA Bind-n-Seq; form: RNA; medium: in vitro; tested at: 365 nM; relative to: no-protein control; direction: higher = stronger binding
Target: RNA binding protein fox-1 homolog 2, RRM domain, GST-SBP tag (RBFOX2, Homo sapiens, UniProt O43251-10, residues 100-194)
Notes: natural RNA segment, single round, ends assumed
Residues (chain): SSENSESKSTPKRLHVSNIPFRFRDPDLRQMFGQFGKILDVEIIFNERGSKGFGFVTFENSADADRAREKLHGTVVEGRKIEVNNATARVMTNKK
| Sequence | RBNS enrichment (R) |
| --- | --- |
| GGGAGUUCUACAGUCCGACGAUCUGUGGCCUGCUGGCUGCAUGCUGUAUCAGCCACAACCUGGCAAGUGGCCUUCUGACAGGUUUCUUUUUAUUAGAACCACAGUUUUGACUUUGUUUUGGUAAGCUGUCCUCUGGAAUUCUCGGGUGCCAA | 2.18 |
| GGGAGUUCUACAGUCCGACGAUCCAACAGAAGCUGUGCAGCCAGGGCAGGCCCAGGCCAGCCAGUACCUGAGAGUAGGAAGGCCAGGCCCUUGAGGUCCUGUCCCAUGGGACAGCACACACACUACCUGCAAUUGGAAUUCUCGGGUGCCAA | 0.369 |
| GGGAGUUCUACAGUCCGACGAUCUAACUACUCCUAAAAAGGUUUUGAUUCAGGCUUUUUUUUGGUUUCAUUUUGUUUUUUUAAGAAAAAGAAAAUGAAAGGAAAAAAAUAAAAGAUCCAGUGUCUUUCUUACAUGGAAUUCUCGGGUGCCAA | 0.537 |
| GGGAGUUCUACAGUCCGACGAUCAGUUUUCUUUAAGUAGCCUGUGCAGUCAUGCAUGUGCCUGAGUUGUCUGGAGCAGAGGCAAACAUCUGACUUCAUUCUUAGCCCCAAGCUGCCAUUUCUGAGUCCUUGAGUGGAAUUCUCGGGUGCCAA | 1.87 |
| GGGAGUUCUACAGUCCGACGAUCCUCCGAGAGAAGCACGCCAACCUUAACAUCCCCUACAGCAUCUUGGUGCUUCACACACCAUUUAGGAGGCCACCCUAACGAGGCAAGAGGACAUGGGGGUGUGCAGAAGUUGGAAUUCUCGGGUGCCAA | 2.33 |
| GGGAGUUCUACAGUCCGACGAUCGGGCUCGUUGCACUUUAAGAAAUAGGAUCUGUGGUGUAUUCCAGGGGGCCUGAUGGACACCUUUCCCGGGCGUCUGCAGCUGCCCUGCCCGUGCCCGCCUGCAGUGGUUGUGGAAUUCUCGGGUGCCAA | 0.347 |
| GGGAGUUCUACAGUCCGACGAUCCAUUUAGUUCACUGCUAAACAAAUUAAAGCACACUUUUCAGGACUUGCUGGGUCACCUUUUCCUGAGGAAUGAUACAGAAGAGUGUUUUUUCAUAAACUGGACCAUAAUUUGGAAUUCUCGGGUGCCAA | 0.816 |
| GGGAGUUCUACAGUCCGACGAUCAGAGAGUGAAUUUCAGUAUACAGACAGCCUGCUCUACCCACCCCUUCCUUACCACGGCCCACGUAAAUGUGACCCUGGACAUCUGUCACACGAAAGCUAAGCUGGUGGCCUGGAAUUCUCGGGUGCCAA | 0.788 |
| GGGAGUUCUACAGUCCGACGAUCAAUUUUCCAGCAGUAACAUUUAGAGAUUCUUUAUAGAAAUGUCCUCUGCACCAACAGUUUAUGGCUGAGAUGUUUUGUAAUUUCAUGAUGUUUGUAAUUUUCAUGAAAAUUGGAAUUCUCGGGUGCCAA | 0.826 |
| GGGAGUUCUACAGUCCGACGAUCCAAGAUAUCUCAUGGCAUAUUAAAAGAAAAAUCUUAAUAGCAGUGUUGGCUUUUAUUUGGAUUUUUUCAUCUCAGUUUUUUCUGUGGAAUCUCCUUCAUUGGCAUUGUUAUGGAAUUCUCGGGUGCCAA | 0.845 |
| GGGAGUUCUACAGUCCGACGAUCGAGAGGGGUGUUUCUGCCCGGGUUGCCCUCCUUCAGUGAGUCAGAAGAACCUUCUGGGCCUAGAGGCAGACGCUGCAUUGCACUAUUCCAGUGUCUUCCACGGAGCCUCUUGGAAUUCUCGGGUGCCAA | 0.597 |
| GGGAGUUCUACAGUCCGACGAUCUGGCCCCUCCUCUGAAGGCCAGCAAGAGGUGGAGCAAGGAUCAACUGCUGUUCUGGAGUAGGGUUCCAUCUCCCAUUUCUUCCAGCUCUGCCAAGUUGGCCCUCCCUGCUUGGAAUUCUCGGGUGCCAA | 0.424 |

Block 4 — technique: protein binding microarray; form: double-stranded DNA, one strand shown; medium: in vitro; tested at: not given; relative to: not given; direction: higher = stronger binding
Target: Histone acetyltransferase KAT6A, winged helix 1, GST fusion (KAT6A, Homo sapiens, UniProt Q92794, residues 1-85)
Notes: 8-mer, flanks averaged, mean of 2 arrays, mostly near background
Residues (chain): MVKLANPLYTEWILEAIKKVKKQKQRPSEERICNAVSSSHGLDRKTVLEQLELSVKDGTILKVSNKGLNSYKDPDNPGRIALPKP
| Sequence | E-score |
| --- | --- |
| AATCCTTC | -0.135 |
| GTAATGAC | -0.0367 |
| CACCGGAG | 0.225 |
| AAATACGA | -0.14 |
| CGTAACCC | 0.376 |
| GGTGCGCA | 0.336 |
| AAGACGAA | -0.0388 |
| TTTTAAAA | -0.142 |
| CACCTGAA | -0.237 |
| TCAATCGA | -0.0736 |
| CACACTCC | -0.125 |
| CATTATCG | -0.0127 |
| GACCTCGC | 0.197 |
| CGTCCAGA | -0.0917 |
| CTGGGTAC | -0.0924 |
| AGATGCTC | -0.168 |
| CAAGTGGC | -0.0335 |
| AGTACTGG | -0.133 |
| CAAACACC | 0.0643 |
| ACGAGCCG | 0.161 |
| GATGGCCA | -0.0322 |
| GCTTCAAA | -0.0296 |
| AACATAGG | -0.0185 |
| CCGTGCAA | 0.16 |

Excerpt of the above (block 1):
| Modification | mean fluorescence intensity [a.u.] |
| --- | --- |
| 2'F-ANA at 2 3 8 11 14 15 | 380 |
| 2'F-ANA at 2 3 4 5 6 9 10 11 12 14 15 | 52.8 |
| 2'F-ANA at 1 3 7 11 13 14 | 91.8 |
| 2'F-ANA at 1 2 3 4 7 8 9 10 12 13 14 | 53.3 |
| 2'F-ANA at 3 4 5 6 7 8 10 11 12 13 14 | 44.7 |
| 2'F-ANA at 4 5 6 12 15 | 138 |
| 2'F-ANA at 3 5 7 8 | 174 |
